Results of several laboratories.
Compare with care: the assays were run in different laboratories.
Target: Tyrosine-protein kinase BTK (BTK, Homo sapiens, UniProt Q06187)
Sequence of UniProt Q06187 (whole entry, looked up): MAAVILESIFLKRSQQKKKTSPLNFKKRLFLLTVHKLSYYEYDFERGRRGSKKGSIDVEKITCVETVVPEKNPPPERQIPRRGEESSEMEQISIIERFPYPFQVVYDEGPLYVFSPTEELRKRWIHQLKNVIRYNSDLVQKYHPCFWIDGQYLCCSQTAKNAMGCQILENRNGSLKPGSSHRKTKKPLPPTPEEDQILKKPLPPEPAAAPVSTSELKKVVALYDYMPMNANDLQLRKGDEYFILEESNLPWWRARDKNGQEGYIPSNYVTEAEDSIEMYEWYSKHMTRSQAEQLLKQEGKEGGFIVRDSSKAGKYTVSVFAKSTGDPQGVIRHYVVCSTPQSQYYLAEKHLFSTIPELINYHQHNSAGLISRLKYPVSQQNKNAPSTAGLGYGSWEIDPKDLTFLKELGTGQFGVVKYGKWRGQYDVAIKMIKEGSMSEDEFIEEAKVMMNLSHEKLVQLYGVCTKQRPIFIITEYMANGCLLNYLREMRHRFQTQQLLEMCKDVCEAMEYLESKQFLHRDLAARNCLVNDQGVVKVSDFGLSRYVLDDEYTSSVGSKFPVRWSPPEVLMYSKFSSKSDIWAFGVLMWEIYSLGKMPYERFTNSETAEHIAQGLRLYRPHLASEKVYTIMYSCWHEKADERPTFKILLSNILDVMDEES

N#CCC(=O)N1CCC[C@H]1Cn1nc(-c2ccc(Oc3ccccc3)cc2F)c2c(N)ncnc21 — residence time (fluorescence competition): ≤ 5 min
C=CC(=O)N1CCc2ccc(-n3c(=O)ccc4cnc5ccc(-c6cnn(C)c6)cc5c43)cc21 — degradation (degrader; HEK293T; 1 µM, with: cycloheximide): ~50%
CN(C1COC1)C(C)(C)/C=C(\C#N)C(=O)N1CCC[C@H]1Cn1nc(-c2ccc(Oc3ccccc3)cc2F)c2c(N)ncnc21 — residence time (fluorescence competition): 10100 min
COc1cc(C(=O)NC2CCC(N3CCN(CC4CCC5(CCCC5)C4)CC3)CC2)c(F)cc1Nc1ncc2c(n1)N(C1CCCC1(F)F)CC(F)(F)C(=O)N2C (centres unmarked) — inhibition (cell-free assay, TR-FRET; 10 µM): 3.1%
Nc1ncnc2c1c(-c1ccc(Oc3ccccc3)cc1)nn2C1CCCN(C(=O)C2CC(Br)=NO2)C1 (mixture of isomers) — probe labeling blockade (competitive in-gel fluorescence; 10 µM, 4 h, with: alkyne probe 1 µM): inhibited
Cc1cccc(C)c1Nc1nn(C)c2nc(Nc3ccc4c(c3)CN(CC3CCN(c5ccc6c(c5)C(=O)N(C5CCC(=O)NC5=O)C6=O)CC3)CC4)ncc12 (centres unmarked) — remaining protein (degrader, western blot; TMD8; 100 nM, 4 h; relative to: vehicle): < 10%
COc1ccc(Nc2nc(Nc3ccc(OC)c(OC)c3)c3nc[nH]c3n2)cc1OC — fraction bound (native mass spectrometry; crude cell lysate; 1 µM): 24%
C#CCSc1nc(Sc2nnnn2-c2ccccc2)c2nnn(Cc3ccccc3Cl)c2n1 — inhibition (enzyme activity, inhibitor; 10 µM): < 15%
